Results collected from several papers.
Numbers after ± are the reported error.
Cell line: HCT-116

| Structure (SMILES) | test | test system | conditions | IC50 [µM] |
| --- | --- | --- | --- | --- |
| CSc1nc(Nc2ccc(C(=O)N/N=C/c3ccc(Cl)cc3Cl)cc2)c(C#N)c(-c2ccccc2)n1 | cell growth or viability, MTT |  | 48 h | 20.6 |
| C#CCOc1ccc(/C=N\NC(=O)c2ccncc2)cc1 | cell growth or viability, MTT |  | 48 h | 395 |
| CO[C@@H]1[C@@H](O[C@@H]2O[C@H](C)[C@@H](O[C@H]3C[C@@](C)(O)[C@@H](OC(=O)NC4CCCCC4)[C@H](C)O3)[C@H](N(C)C)[C@H]2O)[C@@H](CC=O)C[C@@H](C)[C@@H](O[C@H]2CC[C@H](N(C)C)[C@@H](C)O2)/C=C/C=C/C[C@@H](C)OC(=O)C[C@H]1O | cell growth or viability, CCK-8 |  | 72 h | > 50 |
| Cc1cc(C)c([N+]#[C][Pt-]([Cl])([Cl])=[C](Nc2cccc(CN[C](Nc3c(C(C)C)cccc3C(C)C)=[Au][Cl])c2)Nc2c(C)cc(C)cc2C)c(C)c1 | cell growth or viability |  |  | > 100 |
| COc1cccc2cc(C(=O)NNc3nc(-c4ccccc4)cs3)c(=O)oc12 | cell growth or viability, SRB |  | 72 h | 193 |
| O=C(NCCCCCCCNc1n[n+]([O-])c2ccccc2[n+]1[O-])C(F)(F)F | cytotoxicity, MTT |  | 24 h, hypoxia | 47.5 |
| O=C(Cn1c(=O)c(Cc2ccccc2)nc2ccccc21)NCCOCCO | cell growth or viability, MTT |  | 72 h | 0.405 |
| CO[C@@H]1[C@@H](O[C@@H]2O[C@H](C)[C@@H](O[C@H]3C[C@@](C)(O)[C@@H](OC(=O)CN4CCOCC4)[C@H](C)O3)[C@H](N(C)C)[C@H]2O)[C@@H](CC=O)C[C@@H](C)[C@@H](O[C@H]2CC[C@H](N(C)C)[C@@H](C)O2)/C=C/C=C/C[C@@H](C)OC(=O)C[C@H]1O | cell growth or viability, CCK-8 |  | 72 h | 8 |
| CC(C)c1cccc(C(C)C)c1[N+]#[C][Pt-]([Cl])([Cl])=[C](Nc1ccc(CN[C](Nc2c(C(C)C)cccc2C(C)C)=[Au][Cl])cc1)Nc1c(C(C)C)cccc1C(C)C | cell growth or viability |  |  | > 100 |
| CC(C)Cn1cc(-c2ccnc(Nc3ccc(N4CCN(CCCCCCC(=O)NO)CC4)cc3)n2)nn1 | cell growth or viability, SRB |  | 72 h | 3.53 |
| CO[C@@H]1[C@@H](O[C@@H]2O[C@H](C)[C@@H](O[C@H]3C[C@@](C)(O)[C@@H](OC(=O)CC(C)C)[C@H](C)O3)[C@H](N(C)C)[C@H]2O)[C@@H](CC=O)C[C@@H](C)[C@@H](O[C@H]2CC[C@H](N(C)C)[C@@H](C)O2)/C=C/C=C/C[C@@H](C)OC(=O)C[C@H]1O | cell growth or viability, CCK-8 |  | 72 h | 12.7 |
| N#Cc1c(F)c(Cl)c2nc(SCc3ccccc3)nc(N)c2c1F | cell growth or viability, MTT |  | 96 h | 6.71 |
| Oc1ccc2c(c1)OCc1c-2oc2cc3c(cc12)OCO3 | cell growth or viability, MTT |  | 72 h | 21.9 |
| CN1CCC2(CC1)C/C(=N\NC(=O)Nc1ccc([N+](=O)[O-])cc1)c1ccccc1O2 |  |  | 48 h | 20.7 ± 0.88 |
| Cc1ccc2nc(C)n(/N=C/c3ccc(C(=O)O)cc3)c(=O)c2c1 | cytotoxicity, LDH release |  | 24 h, 50% viability reduction | 460 ± 12.1 |
| Cc1cc(C)c([N+]#[C][Pt-]([Cl])([Cl])=[C](Nc2cccc(CN[C](NC(C)(C)C)=[Au][Cl])c2)Nc2c(C)cc(C)cc2C)c(C)c1 | cell growth or viability |  |  | > 100 |
| COc1cc(C2COc3cc(O)cc(O)c3C2=NO)c(OC)cc1O (stereo not shown) | cell growth or viability, MTT |  | 72 h | 82.6 |
| Cc1ccc(CN2C(=O)/C(=N\c3ccc(Cl)cc3Br)c3ccccc32)cc1 | cell growth or viability, MTT |  | 48 h | 0.64 |
| NC(=S)NNC(=O)c1cc2ccccc2oc1=O | cell growth or viability, SRB |  | 72 h | 15.2 |
| CSc1nc(Nc2cccc(/C(C)=N/NC(=O)c3ccc([N+](=O)[O-])cc3)c2)c(C#N)c(-c2ccccc2)n1 | cell growth or viability, MTT |  | 48 h | 7.15 |
| C/C(=N\NC(N)=S)c1c(O)c2ccccc2oc1=O | cell growth or viability, MTT |  | 48 h | 17.8 |
| CCCCSc1nc(N)c2c(F)c(F)c(C#N)c(F)c2n1 | cell growth or viability, MTT |  | 96 h | 9.32 |
| C/C(=N\NC(=S)SCc1ccccc1)c1ccc(S(=O)(=O)N2CCC(C)CC2)cc1 | cell growth or viability, MTT |  |  | 117 |
| O=c1c(Cc2ccccc2)nc2ccccc2n1-c1ccc([N+](=O)[O-])cc1[N+](=O)[O-] | cell growth or viability, MTT |  | 72 h | 0.463 |
| CC(=O)OC[C@H]1O[C@@H](Oc2ccc(C#[C][Pt+])cc2)[C@H](OC(C)=O)[C@@H](OC(C)=O)[C@@H]1OC(C)=O.O=S(=O)([O-])C(F)(F)F.c1ccc(-c2cccc(-c3ccccn3)n2)nc1 | cell growth or viability |  | 72 h | 16.2 |
| COc1ccc(-c2nc(SCCOC(=O)[C@]3(C)CCC[C@]4(C)c5ccc(C(C)C)cc5CCC34)nc(O)c2C#N)cc1 (stereo partly shown) | cell growth or viability, MTT |  | 48 h | 9.53 to 19.4 |
| Cc1cc(C)c([N+]#[C][Pd-]([Cl])([Cl])=[C](Nc2cccc(CN[C](NC(C)(C)C)=[Au][Cl])c2)Nc2c(C)cc(C)cc2C)c(C)c1 | cell growth or viability |  |  | 5.2 |
| CCCCCCCCCCCCCCCC(=O)O[C@H]1[C@H](C)O[C@@H](O[C@H]2[C@H](N(C)C)[C@@H](O)[C@H](O[C@H]3[C@@H](CC=O)C[C@@H](C)[C@@H](O[C@H]4CC[C@H](N(C)C)[C@@H](C)O4)/C=C/C=C/C[C@@H](C)OC(=O)C[C@@H](O)[C@@H]3OC)O[C@@H]2C)C[C@@]1(C)O | cell growth or viability, CCK-8 |  | 72 h | 14.6 |

| Structure (SMILES) | test | test system | conditions | IC50 [µM] |
| --- | --- | --- | --- | --- |
| C/C(=N\N=c1/[nH]c(-c2ccccc2)cs1)c1c(O)c2ccccc2oc1=O | cell growth or viability, MTT |  | 48 h | 31.8 |
| CSc1nc(Nc2ccc(C(=O)N/N=C/c3ccc(Cl)cc3)cc2)c(C#N)c(-c2ccccc2)n1 | cell growth or viability, MTT |  | 48 h | 12.3 |
| CCN1CCC2(CC1)C/C(=N\NC(=O)Nc1ccccc1)c1ccccc1O2 |  |  | 48 h | 2.99 |
| CN1CCN(C(=O)c2cn(C34CCCC(C)(CCC5C3CC5(C)C)C4)nn2)CC1 (stereo not shown) | cell growth or viability, CCK-8 |  | 72 h | 22.2 |
| COC(=O)CNC(=O)CNC(=O)CNC(=O)COc1ccc2c(C)cc(=O)oc2c1 | cell growth or viability, MTT |  |  | 219 |
| CS/C(=N/N=C(\C)c1ccc(S(=O)(=O)N2CCC(C)CC2)cc1)SCc1ccccc1 | cell growth or viability, MTT |  |  | 51.8 |
| O=C(NCCCNc1n[n+]([O-])c2ccccc2[n+]1[O-])C(F)(F)F | cytotoxicity, MTT |  | 24 h, hypoxia | 38.6 |
| COC(=O)CNC(=O)CCn1nc(Cc2ccccc2)c2ccccc2c1=O | cell growth or viability, MTT |  | 48 h | 40.8 |
| CC(C)c1ccc2c(c1)CCC1[C@](C)(C(=O)OCCSc3nc(O)c(C#N)c(-c4ccc(F)cc4)n3)CCC[C@]21C (stereo partly shown) | cell growth or viability, MTT |  | 48 h | 9.53 to 19.4 |
| Cc1c(C)c(C)[c-](C)c1C.O=Cc1ccc(-c2[c-]cccc2)nc1.[Cl-].[Ir+3] | SRB |  | 24 h, 72 h recovery | 18.8 ± 0.5 |
| CC(C)c1cccc(C(C)C)c1[N+]#[C][Pt-]([Cl])([Cl])=[C](Nc1cccc(CN[C](Nc2c(C(C)C)cccc2C(C)C)=[Au][Cl])c1)Nc1c(C(C)C)cccc1C(C)C | cell growth or viability |  |  | > 100 |
| COc1ccccc1/C=C1\SC(=O)N(CC(=O)Nc2ccc(C(=O)Nc3ccc([N+](=O)[O-])cc3)cc2)C1=O | cell growth or viability, MTT |  |  | 9.17 |
| C=C(C)[C@@H]1CC[C@]2(C(=O)OCO/N=[N+](\[O-])N3CCCC3)CC[C@]3(C)[C@H](CC[C@@H]4[C@@]5(C)CC[C@H](OC(C)=O)C(C)(C)[C@@H]5CC[C@]43C)[C@@H]12 | cell growth or viability, MTT |  | 72 h | 1.53 |
| NC1=N[N+](=Cc2c3ccccc3cc3ccccc23)[Ga-3]23([S]1)([S]C(N)=N[N+]2=Cc1c2ccccc2cc2ccccc12)[S]C(N)=N[N+]3=Cc1c2ccccc2cc2ccccc12 |  |  | 24 h | 25.4 ± 0.9 |
| CCCCSc1nc(N)c2c(F)c(C#N)c(F)c(Cl)c2n1 | cell growth or viability, MTT |  | 96 h | 16 |
| Cc1cc(C)c(N=[C](NCc2cccc(N)c2)[AuH][Cl])c(C)c1 | cell growth or viability |  |  | > 100 |
| NOCC(=O)O | cell growth or viability |  | 48 h | ~300 |
| NS(=O)(=O)c1ccc(Nc2nccc(-c3cn(C4CCCCC4)nn3)n2)cc1 | cell growth or viability, SRB |  | 72 h | 4.31 |
| O=C(CCc1nc2cc(Cl)ccc2[nH]c1=O)Nc1ccc(O)cc1 | cell growth or viability, MTT |  |  | 4.72 |
| Cc1cc(N2CCN(C(=O)CN3CCCCC3)CC2)n2ncnc2n1 | cell growth or viability, MTT |  |  | 73.9 |
| Cc1c(C)c(C)[c-](C)c1C.Fc1c[c-]c(-c2ccccn2)cc1.[Cl-].[Ir+3] | SRB |  | 24 h, 72 h recovery | 6.8 ± 0.1 |
| CC(C)Cn1cc(-c2nc(Nc3ccc(OCCCCCCC(=O)NO)cc3)ncc2F)nn1 | cell growth or viability, SRB |  | 72 h | 2.14 |
| CC1CN(C(=O)c2cn(C34CCCC(C)(CCC5C3CC5(C)C)C4)nn2)CCN1 (stereo not shown) | cell growth or viability, CCK-8 |  | 72 h | 16.3 |
| O=C(NCCCCCCNc1n[n+]([O-])c2ccccc2[n+]1[O-])C(F)(F)F | cytotoxicity, MTT | 10% FBS medium | 6 h + 18 h, hypoxia 3% O2 | 63.9 ± 3.8 |
| Cc1nnc(NC(=O)CSc2nnc(-c3ccc4c(c3)OCCO4)o2)s1 | cell growth or viability, MTT |  | 36 h | 7.2 |
| CC(C)c1cccc(C(C)C)c1N=[C](NCc1ccc(N)cc1)[AuH][Cl] | cell growth or viability |  |  | > 100 |
| O=C(NCCCCCCCCNc1n[n+]([O-])c2ccccc2[n+]1[O-])C(F)(F)F | cytotoxicity, MTT |  | 24 h, normoxia | 108 ± 21.3 |

Some of these lines once more:
| Structure (SMILES) | test | test system | conditions | IC50 [µM] |
| --- | --- | --- | --- | --- |
| Cc1c(C)c(C)[c-](C)c1C.O=Cc1ccc(-c2[c-]cccc2)nc1.[Cl-].[Ir+3] | SRB |  | 24 h, 72 h recovery | 18.8 ± 0.5 |
| CN1CCN(C(=O)c2cn(C34CCCC(C)(CCC5C3CC5(C)C)C4)nn2)CC1 (stereo not shown) | cell growth or viability, CCK-8 |  | 72 h | 22.2 |
| NC1=N[N+](=Cc2c3ccccc3cc3ccccc23)[Ga-3]23([S]1)([S]C(N)=N[N+]2=Cc1c2ccccc2cc2ccccc12)[S]C(N)=N[N+]3=Cc1c2ccccc2cc2ccccc12 |  |  | 24 h | 25.4 ± 0.9 |
| CO[C@@H]1[C@@H](O[C@@H]2O[C@H](C)[C@@H](O[C@H]3C[C@@](C)(O)[C@@H](OC(=O)CC(C)C)[C@H](C)O3)[C@H](N(C)C)[C@H]2O)[C@@H](CC=O)C[C@@H](C)[C@@H](O[C@H]2CC[C@H](N(C)C)[C@@H](C)O2)/C=C/C=C/C[C@@H](C)OC(=O)C[C@H]1O | cell growth or viability, CCK-8 |  | 72 h | 12.7 |
| COc1cc(C2COc3cc(O)cc(O)c3C2=NO)c(OC)cc1O (stereo not shown) | cell growth or viability, MTT |  | 72 h | 82.6 |
| O=C(NCCCCCCCCNc1n[n+]([O-])c2ccccc2[n+]1[O-])C(F)(F)F | cytotoxicity, MTT |  | 24 h, normoxia | 108 ± 21.3 |
| NOCC(=O)O | cell growth or viability |  | 48 h | ~300 |
| CS/C(=N/N=C(\C)c1ccc(S(=O)(=O)N2CCC(C)CC2)cc1)SCc1ccccc1 | cell growth or viability, MTT |  |  | 51.8 |
